Experimental data collected from several papers.
Several values in a cell are separate wells, animals, samples, runs or records.
Target: Serine/threonine-protein kinase TBK1 (TBK1, Homo sapiens, UniProt Q9UHD2)

Structure (SMILES)	test	system	conditions	scale	measurement	result
Cc1ccc(-c2c(/C=C(\C#N)C(=O)NC(C)C)n(CCCO)c3ncnc(N)c23)cc1	cell-free assay, competition with immobilised ligand	–	1 µM	–	remaining binding	100%
COc1ccc(NC(=O)Nc2ccc3c(c2)C(=O)N(C(C)CO)CC(C)C(CN(C)Cc2ccc4c(c2)OCO4)O3)cc1 (centres unmarked)	kinase activity, KinaseProfiler	–	0.03 µM, species human	relative to: control	remaining activity	101%
COc1c(OCCCN2CCOCC2)ccc2c1N=C(NC(=O)c1cnc(N)nc1)N1CCN=C21	kinase activity, inhibitor	–	1 µM	relative to: untreated control	remaining activity	91%
Cc1cccc(-c2ccc3nc(NC(=O)C4CCCO4)nn3c2)c1 (centres unmarked)	enzyme activity, Dundee kinase panel	–	10 µM	–	remaining activity	102%
COc1cc(Nc2nccc(-c3cnn4nc(OC)ccc34)n2)cc(C(F)(F)F)c1	binding, competition with immobilised ligand	–	1 µM	–	remaining binding	80%
NC(=O)C[C@H]1CCc2sc3ncnc(O[C@H]4CC[C@H](N5CCOCC5)CC4)c3c21	enzyme activity, inhibitor	–	10 µM	–	inhibition	6%
COc1ccc(C(=O)/C=C/c2ccccc2-c2c[nH]c3ccc(C#N)cc23)c(O)c1	enzyme activity, inhibitor	–	20 µM	–	inhibition	-6%
C=CC(=O)Nc1cccc(-c2cnc3[nH]cc(C(=O)NC(C)(C)C)c3n2)c1	kinase activity	–	0.1 µM	–	inhibition	18% and 23%
Cc1cccc(-c2ccc3nc(NC(=O)C4CCCCC4)nn3c2)c1	enzyme activity, Dundee kinase panel	–	10 µM	–	remaining activity	101%
c1ccc2c(Nc3cc(C4CCC4)[nH]n3)nc(Nc3ccc4nc[nH]c4c3)nc2c1	enzyme activity, inhibitor	–	0.25 µM	–	remaining activity	12%
CNC1C[S+]2CC[S+]3CC[S+](C1)[Ru-4]321([N]=C=S)[n]2c3ccc(OC)cc3c3c4c(c5cc(F)c[n+]1c5c32)C(=O)NC4=O (centres unmarked)	KinomeScan	–	0.1 µM	relative to: untreated	remaining binding	96%
C=CC(=O)N1CCc2ccc(-n3c(=O)ccc4cnc5ccc(-c6cnn(C)c6)cc5c43)cc21	KINOMEscan	–	1 µM	relative to: DMSO control	remaining binding	93%
CN1CC[C@@H](COc2cnc(C#N)cc2-c2ccn3nc(NC(=O)C4CC4)cc3c2)C1	enzyme activity, inhibitor	–	1 µM	–	inhibition	-12%
CS(=O)(=O)Nc1cccc(-c2csc3cnc(Nc4ccc(N5CCN(CCCCCOc6cccc7c6C(=O)N(C6CCC(=O)NC6=O)C7=O)CC5)cc4)nc23)c1 (centres unmarked)	probe labelling, inhibitor, KiNativ chemoproteomics	MOLT-4	1 µM	–	inhibition	92.2%
C=CC(=O)N1Cc2nc(-c3cc(-c4cc(Cl)cnc4Cl)c(F)cc3F)n(-c3ccncn3)c2C1	cell-free assay, inhibitor	–	1 µM	–	inhibition	11.5%
CCN1CCN(Cc2ccc(C(=O)Nc3ccc(C)c(NCc4cnc5[nH]ccc5c4OC)c3)cc2C(F)(F)F)CC1	binding, competition with immobilised ligand	–	1 µM	–	remaining binding	90%
Cc1cnc2nc1Nc1cccc(c1)COC/C=C/COCc1cc(ccc1OCCN1CCOCC1)N2	binding, competition with immobilised ligand	–	0.1 µM	–	remaining binding	57%
Nc1ncc(-c2cc(-c3cnn(CC(F)(F)F)c3)ncc2F)nc1C(=O)NC1CNCC(F)C1 (centres unmarked)	enzyme activity	–	1 µM	relative to: DMSO control	remaining activity	98.6%
Cc1ccc(C(=O)Nc2ccc(CN3CCN(C)CC3)c(C(F)(F)F)c2)cc1C#Cc1cnc2cccnn12	target engagement, NanoBRET	human cells	–	–	upper asymptote	5.3
Cc1cccc(O[C@H]2CCC[C@@H](C(C)CNCc3ccncc3)C2)c1 (relative stereo)	enzyme activity, inhibitor	–	1 µM	–	inhibition	-2%

For quick reference, copied from above:
Structure (SMILES)	test	system	conditions	scale	measurement	result
CS(=O)(=O)Nc1cccc(-c2csc3cnc(Nc4ccc(N5CCN(CCCCCOc6cccc7c6C(=O)N(C6CCC(=O)NC6=O)C7=O)CC5)cc4)nc23)c1 (centres unmarked)	probe labelling, inhibitor, KiNativ chemoproteomics	MOLT-4	1 µM	–	inhibition	92.2%
Cc1ccc(C(=O)Nc2ccc(CN3CCN(C)CC3)c(C(F)(F)F)c2)cc1C#Cc1cnc2cccnn12	target engagement, NanoBRET	human cells	–	–	upper asymptote	5.3
